Measured values gathered from unrelated publications.
Each numbered part is a random draw from the data of one study; scales do not carry over between parts. Several values in a cell are separate wells, animals, samples, runs or records.
Sequence of UniProt Q99640 (whole entry, looked up): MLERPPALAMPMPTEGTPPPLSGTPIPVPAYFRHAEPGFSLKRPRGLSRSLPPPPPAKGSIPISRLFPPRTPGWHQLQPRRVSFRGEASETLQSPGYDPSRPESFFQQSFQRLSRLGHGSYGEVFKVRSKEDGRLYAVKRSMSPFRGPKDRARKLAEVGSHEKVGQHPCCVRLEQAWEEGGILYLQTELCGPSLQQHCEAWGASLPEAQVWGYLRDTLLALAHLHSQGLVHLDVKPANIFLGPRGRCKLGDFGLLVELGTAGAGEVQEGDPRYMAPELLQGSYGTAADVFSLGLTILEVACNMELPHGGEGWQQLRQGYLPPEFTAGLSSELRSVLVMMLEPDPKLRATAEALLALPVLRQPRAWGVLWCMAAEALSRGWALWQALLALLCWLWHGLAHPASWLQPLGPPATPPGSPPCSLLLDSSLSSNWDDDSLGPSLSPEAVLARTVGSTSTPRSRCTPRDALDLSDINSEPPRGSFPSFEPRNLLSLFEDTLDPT

Set 1
Compound: C[C@@H]1CN(c2ccc(-c3cc(C(=O)NCCOCCOCCOCCOCCNC(=O)Cn4cc(-c5[nH]cc(C(=O)N[C@@H](CC(N)=O)c6ccc(F)c(Cl)c6)c5-c5ccc(Cl)cc5F)cn4)ccc3F)cc2NC(=O)c2c[nH]c(=O)cc2C(F)(F)F)C[C@H](C)N1C
Observed: thermal unfolding
Technique: differential scanning fluorimetry
Tested at: 5.5 µM
Direction: higher = more unfolded
DCAF1: DDB1- and CUL4-associated factor 1 (DCAF1, Homo sapiens, UniProt Q9Y4B6)
Sequence of UniProt Q9Y4B6 (whole entry, looked up): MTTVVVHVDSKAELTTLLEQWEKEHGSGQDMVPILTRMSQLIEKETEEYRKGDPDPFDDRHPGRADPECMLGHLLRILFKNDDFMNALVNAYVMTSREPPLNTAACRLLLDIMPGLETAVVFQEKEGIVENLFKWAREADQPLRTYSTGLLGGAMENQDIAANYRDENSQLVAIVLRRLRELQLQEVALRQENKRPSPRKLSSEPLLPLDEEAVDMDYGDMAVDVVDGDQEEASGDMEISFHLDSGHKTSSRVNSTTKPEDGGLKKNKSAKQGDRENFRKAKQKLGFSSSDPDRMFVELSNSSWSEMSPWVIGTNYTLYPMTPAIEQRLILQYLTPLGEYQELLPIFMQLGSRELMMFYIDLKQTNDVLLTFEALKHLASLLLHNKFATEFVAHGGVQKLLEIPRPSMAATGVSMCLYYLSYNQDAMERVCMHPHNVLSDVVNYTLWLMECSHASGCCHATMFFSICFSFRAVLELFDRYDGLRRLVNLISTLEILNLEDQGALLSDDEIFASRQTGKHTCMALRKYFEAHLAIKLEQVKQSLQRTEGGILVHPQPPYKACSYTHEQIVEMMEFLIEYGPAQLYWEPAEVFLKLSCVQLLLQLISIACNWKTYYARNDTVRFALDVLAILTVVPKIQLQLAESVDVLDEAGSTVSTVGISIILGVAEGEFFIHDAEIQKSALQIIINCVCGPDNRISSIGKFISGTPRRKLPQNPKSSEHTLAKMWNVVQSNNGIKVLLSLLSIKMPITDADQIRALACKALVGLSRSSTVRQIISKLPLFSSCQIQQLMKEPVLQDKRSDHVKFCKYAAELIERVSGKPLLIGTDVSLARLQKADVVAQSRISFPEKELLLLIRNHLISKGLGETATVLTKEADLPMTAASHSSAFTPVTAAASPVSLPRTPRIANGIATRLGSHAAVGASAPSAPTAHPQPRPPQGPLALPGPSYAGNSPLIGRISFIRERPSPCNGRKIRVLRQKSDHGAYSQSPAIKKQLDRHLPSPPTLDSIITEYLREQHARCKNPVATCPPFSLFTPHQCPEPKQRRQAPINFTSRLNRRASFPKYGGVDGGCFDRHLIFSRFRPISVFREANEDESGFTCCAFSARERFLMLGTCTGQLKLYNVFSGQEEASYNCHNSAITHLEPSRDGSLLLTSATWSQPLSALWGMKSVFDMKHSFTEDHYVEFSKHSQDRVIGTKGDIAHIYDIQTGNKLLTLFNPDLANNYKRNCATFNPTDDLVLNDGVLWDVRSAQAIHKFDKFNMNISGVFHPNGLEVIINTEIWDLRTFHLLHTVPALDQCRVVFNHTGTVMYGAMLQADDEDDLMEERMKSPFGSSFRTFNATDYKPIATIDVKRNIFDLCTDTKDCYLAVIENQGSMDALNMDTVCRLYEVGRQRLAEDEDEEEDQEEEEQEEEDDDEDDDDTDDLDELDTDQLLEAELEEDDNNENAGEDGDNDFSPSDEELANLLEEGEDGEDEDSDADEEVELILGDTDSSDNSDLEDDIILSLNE
WDR5: WD repeat-containing protein 5 (WDR5, Homo sapiens, UniProt P61964)
target | conditions | SYPRO Orange fluorescence [a.u.]
DCAF1 | 60.61 °C | 41000
WDR5 | 56.41 °C | 12900
WDR5 | 78.21 °C | 17900
WDR5 | 42.6 °C | 14300
WDR5 | 93.81 °C | 39300
WDR5 | 66.21 °C | 7250
DCAF1 | 45.8 °C | 12500

Mixed results
Structure (SMILES) | tested on | assay | system | conditions | scale | measurement | value
CC(C)=CCN1C(=O)C(O)(C(=O)O)Oc2cc(F)ccc21 (centres unmarked) | Arabidopsis thaliana | – | Col-0 | 3.125 µg/mL, seed germination | – | root length | 1.17 cm
Cc1ccc(O)c(C)c1-c1cnc2[nH]c(-c3cnc(N4CCC5(CC4)CC(N4CCN(c6ccc(N[C@H]7CCC(=O)NC7=O)cc6F)CC4)CO5)nc3)cc2c1C#N (single isomer, unassigned) | – | KINOMEscan | 403 non-mutant kinase panel | 1000 nM, percent of control below 1 | – | number of kinases bound | 1
CCCN1C(=O)C(O)(C(=O)O)Oc2cc(F)ccc21 (centres unmarked) | Arabidopsis thaliana | – | 2-week-old plants | foliar spray, 200 µg/mL, 20 days, postemergence | reference: untreated | fresh weight inhibition | 54.8% and 53.6% and 53.9%
COCCCCCCC1CC2C(CCC3(C)C(O)CCC23)c2ccc(O)cc21 (centres unmarked) | PANC-1 | microarray, refers to: ADAMTS8 | – | 50 µM | reference: untreated | mRNA level ratio | 0.46
O=C(O)C1(O)Oc2cc(Br)ccc2N(Cc2ccccc2)C1=O (centres unmarked) | Arabidopsis thaliana | – | Col-0 | 100 µg/mL, seed germination | – | root length | 0.135 cm
Cc1ccc(O)c(C)c1-c1cnc2[nH]c(-c3cnc(N4CCC5(CC4)CC(N4CCN(c6ccc(N[C@H]7CCC(=O)N(C)C7=O)cc6F)CC4)CO5)nc3)cc2c1C#N (single isomer, unassigned) | Membrane-associated tyrosine- and threonine-specific cdc2-inhibitory kinase (PKMYT1, Homo sapiens, UniProt Q99640) | degrader, automated immunoblot (Jess) | – | 4.12 nM, 24 h | – | degradation | 9.18%
O=C(O)C1(O)Oc2cc(F)ccc2N(Cc2ccccc2)C1=O (centres unmarked) | Arabidopsis thaliana | – | shoots | foliar spray, 200 µg/mL, 20 days | – | fresh weight | 214 mg

Repeated from above (set 1):
target | conditions | SYPRO Orange fluorescence [a.u.]
WDR5 | 93.81 °C | 39300
WDR5 | 66.21 °C | 7250
